Measured values collected from several papers.
A part holds a random share of what one study measured. Values joined by “and” are separate records of one study, mostly repeats; a detail may differ.
Chain of UniProt Q99640 (whole entry, looked up): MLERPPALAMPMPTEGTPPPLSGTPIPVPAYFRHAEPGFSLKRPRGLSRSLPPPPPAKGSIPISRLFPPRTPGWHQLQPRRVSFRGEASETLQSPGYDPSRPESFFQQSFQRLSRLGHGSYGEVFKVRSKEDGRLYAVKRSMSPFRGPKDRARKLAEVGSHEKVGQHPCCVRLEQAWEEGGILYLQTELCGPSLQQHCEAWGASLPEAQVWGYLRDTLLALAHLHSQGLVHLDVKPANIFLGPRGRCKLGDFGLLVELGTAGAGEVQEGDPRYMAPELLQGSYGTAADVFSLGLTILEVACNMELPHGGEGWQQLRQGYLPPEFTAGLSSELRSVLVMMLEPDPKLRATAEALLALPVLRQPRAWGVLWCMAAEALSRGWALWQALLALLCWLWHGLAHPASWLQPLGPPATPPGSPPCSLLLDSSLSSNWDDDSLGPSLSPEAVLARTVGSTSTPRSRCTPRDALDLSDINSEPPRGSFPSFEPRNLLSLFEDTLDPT
Chain of UniProt P41143 (whole entry, looked up): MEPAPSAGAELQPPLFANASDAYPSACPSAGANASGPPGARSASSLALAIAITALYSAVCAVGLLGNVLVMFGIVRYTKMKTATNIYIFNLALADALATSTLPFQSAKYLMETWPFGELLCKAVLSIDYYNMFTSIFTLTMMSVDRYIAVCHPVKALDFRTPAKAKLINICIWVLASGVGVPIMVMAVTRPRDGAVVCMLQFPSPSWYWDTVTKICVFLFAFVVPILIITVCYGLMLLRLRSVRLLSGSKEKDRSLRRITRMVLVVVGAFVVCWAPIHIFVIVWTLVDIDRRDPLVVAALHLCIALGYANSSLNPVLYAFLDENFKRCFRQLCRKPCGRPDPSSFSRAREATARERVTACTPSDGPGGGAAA

Study 1
SMILES: Cn1cc(-c2cccc(CN3CCC4(CC3)COc3c4ccc4c3CN([C@H]3CCC(=O)NC3=O)C4=O)c2)cn1
host	matrix	route	dose	setting	AUC(0-t)
rat	–	oral	3 mg/kg	approximate dose	1940 ng·h/mL and 2690 ng·h/mL and 3670 ng·h/mL
cynomolgus monkey	plasma	intravenous	1 mg/kg	–	860 ng·h/mL
rat	plasma	oral	2.98 mg/kg	–	2770 ng·h/mL
cynomolgus monkey	plasma	oral	3.02 mg/kg	–	1290 ng·h/mL

Mixed results
SMILES	target or system	test	system	setting	scale	endpoint	result
COc1cc(C(=O)OCCCN2CCCN(CCCOC(=O)c3cc(OC)c(OC)c(OCc4ccc([N+](=O)[O-])cc4)c3)CC2)cc(OC)c1OC	–	–	male CD-1 mouse, dorsal root ganglia	subcutaneous, dose not given, 4.5 h	–	tissue concentration	301 ng/mL
Cc1ccc(O)c(C)c1-c1cnc2[nH]c(-c3cnc(N4CCC(CN5CCN(c6ccc(N7CCC(=O)NC7=O)cc6F)CC5)CC4)nc3)cc2c1C#N	PKMYT1 (Homo sapiens, UniProt Q99640)	binding, HTRF	–	1000 nM	–	inhibition	99.1% and 98%
C=CCN1C(=O)C(O)(C(=O)O)Oc2cc(F)ccc21 (centres unmarked)	Arabidopsis thaliana	root length	Col-0, seedlings	25 µg/mL	reference: water control	inhibition	20.1%
NCCCCCCCCN1CCC23c4c5ccc(O)c4OC2c2nc4ccccc4cc2CC3(O)C1C5 (centres unmarked)	OPRD1 (Homo sapiens, UniProt P41143)	ligand displacement, radioligand	–	–	–	Ki	2.63 nM

A few entries again (mixed results):
SMILES	target or system	test	system	setting	scale	endpoint	result
COc1cc(C(=O)OCCCN2CCCN(CCCOC(=O)c3cc(OC)c(OC)c(OCc4ccc([N+](=O)[O-])cc4)c3)CC2)cc(OC)c1OC	–	–	male CD-1 mouse, dorsal root ganglia	subcutaneous, dose not given, 4.5 h	–	tissue concentration	301 ng/mL
